Results collected from several papers.
A part holds a random share of what one study measured. Changes are numbered by the printed parent chain.

Sample 1 — observed: binding; method: phage display NGS; form: peptide; notes: panning round 2; reference: input library; measurement: minimum log2 enrichment ratio
Target: UDP-N-acetylglucosamine--peptide N-acetylglucosaminyltransferase 110 kDa subunit (OGT, Homo sapiens, UniProt O15294)
Chain of UniProt O15294 (whole entry, looked up): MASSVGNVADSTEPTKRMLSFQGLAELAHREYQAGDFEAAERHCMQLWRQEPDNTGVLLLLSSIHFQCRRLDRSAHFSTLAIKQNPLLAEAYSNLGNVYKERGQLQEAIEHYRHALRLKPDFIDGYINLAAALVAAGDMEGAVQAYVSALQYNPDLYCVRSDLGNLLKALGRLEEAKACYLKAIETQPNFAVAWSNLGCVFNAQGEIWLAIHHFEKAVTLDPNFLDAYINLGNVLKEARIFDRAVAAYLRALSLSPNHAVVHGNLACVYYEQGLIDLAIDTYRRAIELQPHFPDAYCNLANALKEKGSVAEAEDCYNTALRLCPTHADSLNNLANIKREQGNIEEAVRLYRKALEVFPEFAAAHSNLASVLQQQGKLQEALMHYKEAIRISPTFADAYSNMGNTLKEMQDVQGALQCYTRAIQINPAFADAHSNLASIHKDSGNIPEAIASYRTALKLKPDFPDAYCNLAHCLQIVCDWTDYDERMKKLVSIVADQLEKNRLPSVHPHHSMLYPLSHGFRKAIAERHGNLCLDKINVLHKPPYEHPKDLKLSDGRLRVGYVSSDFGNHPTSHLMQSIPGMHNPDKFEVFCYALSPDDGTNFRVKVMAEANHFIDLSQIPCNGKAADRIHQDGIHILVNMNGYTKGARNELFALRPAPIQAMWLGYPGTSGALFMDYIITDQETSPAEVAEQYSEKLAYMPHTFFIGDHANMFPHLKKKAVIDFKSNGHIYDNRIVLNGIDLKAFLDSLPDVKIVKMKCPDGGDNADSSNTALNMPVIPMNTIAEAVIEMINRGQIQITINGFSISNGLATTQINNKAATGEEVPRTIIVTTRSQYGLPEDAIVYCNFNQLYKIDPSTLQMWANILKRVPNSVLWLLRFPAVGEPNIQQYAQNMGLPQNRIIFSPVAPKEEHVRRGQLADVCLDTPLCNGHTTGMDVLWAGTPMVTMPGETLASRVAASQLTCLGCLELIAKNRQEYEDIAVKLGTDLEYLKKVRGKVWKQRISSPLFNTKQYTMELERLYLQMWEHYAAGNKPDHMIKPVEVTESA
EWLPMYQIQYVMYAT: 2.73
YPHHDGHSHSYEPFH: 2.08
HYFPTYMKHHVNFTD: 2.08
HYYQHPPIGDHHMAI: 1.94
IEMHHQHHAHLLNR: 2.82
HFRMGHNRETTHVG: 2.65

Sample 2 — target: CCNB1, cyclin fold, Cln2 fusion (human); method: yeast growth competition, sequencing; matrix: yeast; notes: strong parent motif; reference: not given; reading: higher = stronger binding; measurement: normalised enrichment score
Parent: viral docking peptide; YKVKRRLVFGADD; partner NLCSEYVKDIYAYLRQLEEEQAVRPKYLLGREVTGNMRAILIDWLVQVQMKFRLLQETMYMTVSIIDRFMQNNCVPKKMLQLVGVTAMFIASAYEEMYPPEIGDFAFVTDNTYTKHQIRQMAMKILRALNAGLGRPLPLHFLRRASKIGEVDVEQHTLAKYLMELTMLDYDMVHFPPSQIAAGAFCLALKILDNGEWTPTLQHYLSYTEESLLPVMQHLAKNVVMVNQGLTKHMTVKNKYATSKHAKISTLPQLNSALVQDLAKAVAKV
YKVKRRLDFGADD [V8D]: 5.75
YKVKRRLVFGYDD [A11Y]: 3.56
YKVKRRLMFGADD [V8M]: 3.51
YKVKRRLIFGADD [V8I]: 4.01
YKVDRRLVFGADD [K4D]: 2.23
YKVKRRLVTGADD [F9T]: 0.417
YKVKRMLVFGADD [R6M]: 2.74
YDVKRRLVFGADD [K2D]: 4.68
YSVKRRLVFGADD [K2S]: 4.47
YKCKRRLVFGADD [V3C]: 2.1
YKFKRRLVFGADD [V3F]: 1.05
YKVKRRLQFGADD [V8Q]: 3.14
YKVKRVLVFGADD [R6V]: 1.46
YRVKRRLVFGADD [K2R]: 3.88
YKVKRRLVFGAED [D12E]: 3.66
YKMKRRLVFGADD [V3M]: 0.534
YKVKRRLVFPADD [G10P]: 4.63
YKVKRRLVFGAAD [D12A]: 2.2
YKVERRLVFGADD [K4E]: 4.23
YKVKRRCVFGADD [L7C]: 0.0737
YKVKRKLVFGADD [R6K]: 4.14
YKVKRRLVFGAFD [D12F]: 1.97
YKVKRRLWFGADD [V8W]: 3.04
YLVKRRLVFGADD [K2L]: 3.78
YMVKRRLVFGADD [K2M]: 4.14

Sample 3 — method: RNA Bind-n-Seq; form: RNA; matrix: in vitro; concentration: 200 nM; notes: whole 134-nt RNA, ends assumed; added: 150 mM KCl; reference: input library; reading: higher = stronger binding; measurement: log2 enrichment
Target: Fragile X messenger ribonucleoprotein 1, C-terminal low-complexity region (Fmr1, Mus musculus, UniProt P35922)
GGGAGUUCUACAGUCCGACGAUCAAGUCCUGUGCUACACAUCGUAUGUACCGAAUCGGAAAAAAAGGAAAAAGGAAAGGAAAGUAUUAUGUUACGCCGUUCGGAUCUGCACUUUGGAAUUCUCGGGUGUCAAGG: -1.03
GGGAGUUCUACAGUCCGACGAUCUCCUGUGCUACACAUCGUAUGUACCGAAUCGGGAAAAAAAGGAAAAAAAGGAAAAAAAGGAAAGUAUUAUGUUACGCCGUUCGGAUCUGCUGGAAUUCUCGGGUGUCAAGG: -0.181
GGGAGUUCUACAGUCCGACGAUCCCUGUGCUACACAUCGUAUGUACCGAAUCGGUUUUUUUGGUUUUUUUGGGGUUUUUUUGGGAAAGUAUUAUGUUACGCCGUUCGGAUCUGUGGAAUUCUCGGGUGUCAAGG: -0.894
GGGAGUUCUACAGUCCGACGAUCGUCCUGUGCUACACAUCGUAUGUACCGAAUCGGGAAAGGGUUUUUGGGAAAAAAAGGGAAAGUAUUAUGUUACGCCGUUCGGAUCUGCACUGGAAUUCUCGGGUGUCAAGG: -0.208
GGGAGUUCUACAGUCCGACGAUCUCAAGUCCUGUGCUACACAUCGUAUGUACCGAAUCGGGGAAAGGGAAAGGAAAGGAAAGUAUUAUGUUACGCCGUUCGGAUCUGCACUUCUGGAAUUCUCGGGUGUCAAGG: -0.5
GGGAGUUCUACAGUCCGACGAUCAAGUCCUGUGCUACACAUCGUAUGUACCGAAUCGGUUUUUGGAAAGGAAAAAAAGGAAAGUAUUAUGUUACGCCGUUCGGAUCUGCACUUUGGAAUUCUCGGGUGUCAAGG: -0.9
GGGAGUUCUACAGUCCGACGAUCAGUCCUGUGCUACACAUCGUAUGUACCGAAUCGGGGAGGGGAAAAAGGGGUUUGGGGAAAGUAUUAUGUUACGCCGUUCGGAUCUGCACUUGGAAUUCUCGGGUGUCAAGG: 0.657
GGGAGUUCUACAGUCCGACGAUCCAAGUCCUGUGCUACACAUCGUAUGUACCGAAUCGGUUUUUGGUGGAAAAAAAGGAAAGUAUUAUGUUACGCCGUUCGGAUCUGCACUUCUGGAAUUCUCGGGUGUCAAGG: -0.638

Sample 4 — target: inorganic phosphate, free oxyanion; method: microfluidic competitive inhibition; matrix: in vitro, cell-free expressed; concentration: not given; reading: lower = stronger binding; measurement: phosphate dissociation constant
Notes: derived from inhibition constants, unchanged parent 615000 nM
Parent: PafA, mature enzyme, eGFP fusion (Elizabethkingia meningoseptica, UniProt Q9KJX5); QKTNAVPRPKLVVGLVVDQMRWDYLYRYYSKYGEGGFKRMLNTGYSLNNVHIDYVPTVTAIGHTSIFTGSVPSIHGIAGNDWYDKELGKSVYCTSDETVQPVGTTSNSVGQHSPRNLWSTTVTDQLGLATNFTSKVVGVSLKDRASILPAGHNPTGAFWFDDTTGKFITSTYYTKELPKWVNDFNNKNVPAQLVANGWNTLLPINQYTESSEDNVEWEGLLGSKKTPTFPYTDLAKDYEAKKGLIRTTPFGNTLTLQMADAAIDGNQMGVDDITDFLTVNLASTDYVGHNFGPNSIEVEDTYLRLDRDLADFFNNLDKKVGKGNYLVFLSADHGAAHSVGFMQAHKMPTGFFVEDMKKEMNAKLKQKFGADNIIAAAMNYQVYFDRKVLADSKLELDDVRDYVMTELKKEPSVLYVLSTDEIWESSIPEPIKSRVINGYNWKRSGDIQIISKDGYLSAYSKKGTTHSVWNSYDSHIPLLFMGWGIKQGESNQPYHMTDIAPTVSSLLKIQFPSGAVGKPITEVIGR
F291G: 405 µM
I422G: 475 µM
D81G: 734 µM
P178G: 545 µM

Sample 5 — method: RNAcompete; form: RNA; matrix: in vitro; concentration: 20 nM; notes: 7-mer, probes averaged, single round; reference: mean of 7-mers; reading: higher = stronger binding; measurement: 7-mer Z-score
Target: PABPC1L2, full length, GST fusion (mouse, UniProt A0ABA7IW68)
Residues (chain): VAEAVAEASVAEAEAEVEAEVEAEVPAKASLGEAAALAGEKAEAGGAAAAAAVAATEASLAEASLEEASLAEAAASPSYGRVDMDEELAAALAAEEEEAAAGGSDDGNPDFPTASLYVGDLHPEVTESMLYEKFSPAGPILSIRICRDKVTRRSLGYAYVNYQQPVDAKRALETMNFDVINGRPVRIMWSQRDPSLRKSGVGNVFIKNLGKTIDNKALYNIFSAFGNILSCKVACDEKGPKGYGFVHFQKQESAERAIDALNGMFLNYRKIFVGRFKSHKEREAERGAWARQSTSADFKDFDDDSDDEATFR
UGGCUGA: 0.00436
AGUGGAC: 0.216
ACACGAA: 0.157
AGUCACC: -0.233
CACGUUU: -0.411
UUCGGGG: -0.0283
AACCGGG: 0.171
GCAUCAC: 0.0478

Excerpt of the above (sample 5):
CACGUUU: -0.411
AGUCACC: -0.233
AGUGGAC: 0.216
